Measured values collected from several papers.
Each numbered part is a random draw from the data of one study; scales do not carry over between parts.

Series 1
Target: RING finger protein unkempt homolog, zinc fingers 1-6, GST-SBP tag (UNK, Homo sapiens, UniProt Q9C0B0, residues 30-357)
Technique: RNA Bind-n-Seq
Form: RNA
Sample: in vitro
Tested at: not given
Setting: RNA with constant flanks, human and mouse sites, ends assumed
Reference: input RNA pool
Direction: higher = stronger binding
Quantity: bound/input enrichment
All sequences stand within: GGGAGUUCUACAGUCCGACGAUC … CAACAGAGGAUUGAGCAUCA
Construct (chain): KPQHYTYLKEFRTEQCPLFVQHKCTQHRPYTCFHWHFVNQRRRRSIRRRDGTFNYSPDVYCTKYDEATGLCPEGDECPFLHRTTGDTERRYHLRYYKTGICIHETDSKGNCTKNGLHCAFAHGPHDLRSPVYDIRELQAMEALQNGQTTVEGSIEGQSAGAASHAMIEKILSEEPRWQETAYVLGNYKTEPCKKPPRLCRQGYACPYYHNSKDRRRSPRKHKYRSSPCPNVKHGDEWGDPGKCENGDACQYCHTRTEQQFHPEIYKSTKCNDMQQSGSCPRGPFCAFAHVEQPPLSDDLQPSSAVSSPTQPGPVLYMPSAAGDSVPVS
UAGACCAAAAAUUCUGAUGACCACAUCUAGAUUAUUUUUCUAUAAAAAAAUGAUUUUCACUAUAGCGAUGUCAGUCACCACUAAGCUACUGUCCAAUUCCAUGUGAUGUGUAACUUUUAC: 1.71 ratio
GAAAUCCAUAUUUAUUUUGUAAUUAACUGUCAAGCCUGUGGAUGAUUUUUUUGAACUUGGUAGUUCAUAAAGGUUUACAGUGAAUAAAAGGAUAUCAUCUUGAGUAUAGCAAUAUCAAAA: 0.673 ratio
UCCCCAAGUGGAGUUUCACUCAUACUUGAAAGGCCCUGCCCAGGAAGGGUUUGUUUCCACAUUGAAUGGCGACAGCCACAUUUCAGAGCAUCCUGCAGAAAAUCCUUUGAGCCUUGCAGA: 0.0812 ratio
UUGGACAUCCUCCUUCAGGACACCACCACAGAACCUUUGAGCCUGCUCGAAACCCCCCAGGAGACAACGCUUUAUACCAACAGUGUGCCUAAGCCUAGGAUCUUGGAUGCUGAACUUGAA: 0.223 ratio
ACUGGAGAGAAACCUUACAAAUGUAGUGAAUGUGAGAAAUCCUUUACAGUAGGCUCGGAUCUUAGAAUGCAUCAAAAAAUUCAUACUGGAGAGAAACCUUACAAAUGUAGUGACUGUGAU: 0.463 ratio
CUGAGCCCAGGGUCCCAAAUCAACGUGCUGGAAGACCCAGGCUACCUAGAUCUCACACAAAUAGAAGCAAGCAAACCUCACAGUGCCCAGUUUUUGCUACCAGUUGAGAUGUUUGGUCCU: 0.217 ratio
UGGCGUUUCAGCAACAUGAAACAGUGGAAUGUCAACUGGGAAAUCAAAAUGGUCACCGUAGAGUUUGCAGAUGAAGUACGAUUGUCCUUCAUUUGUACUGAAGUAGAUUGCAAAGUGGUU: 0.821 ratio
UACCCGUUCUCUCCCUAUAACCUGUUUAUUAACCAACCCUGUCCUGAGUUCAUGGCCAAAACUUAAAUAAGAGAAGGAGGAGAGGGUCAGAUGGAUAAAGAUAAAGAUACCAAGGCCUGG: 0.242 ratio
AAAACAGAAAAUGGUGCUGGAGACCAGUAGUUUAGUAAACCAAUUUUUUAUUCAUUUUAAAUAGGUUUUAAACGACUUUUGUUUGCGGGGCUUUUAAAAGGAAAACCGAAUUAGGUCCAC: 2.53 ratio
UUGCCCAUUUUUAAGCAAGAAGAGUCGAGUUUGCCUCCUGAUAAUGAGAAUAAAAUCCUGCCUUUUCAAUAUGUGCUUUGUGCUGCUACCUCUCCAGCAGUGAAACUCCAUGAUGAAACC: 0.192 ratio
GAUGAGGGUCAGAAGCCUUACCUGGUACAGCGGAGAGGAGCUGAAUUUGCCUUAACAACUAUAGUGAAGCAUUUUGGUGCUGAAAUGGCAGUGAAGUUGCCACAUCUUUGGGAUGCUAUG: 0.265 ratio

Series 2
Target: Ras GTPase-activating protein-binding protein 1, C-terminal RGG region (G3BP1, Homo sapiens, UniProt Q13283)
UniProt Q13283, sequence (whole entry, looked up): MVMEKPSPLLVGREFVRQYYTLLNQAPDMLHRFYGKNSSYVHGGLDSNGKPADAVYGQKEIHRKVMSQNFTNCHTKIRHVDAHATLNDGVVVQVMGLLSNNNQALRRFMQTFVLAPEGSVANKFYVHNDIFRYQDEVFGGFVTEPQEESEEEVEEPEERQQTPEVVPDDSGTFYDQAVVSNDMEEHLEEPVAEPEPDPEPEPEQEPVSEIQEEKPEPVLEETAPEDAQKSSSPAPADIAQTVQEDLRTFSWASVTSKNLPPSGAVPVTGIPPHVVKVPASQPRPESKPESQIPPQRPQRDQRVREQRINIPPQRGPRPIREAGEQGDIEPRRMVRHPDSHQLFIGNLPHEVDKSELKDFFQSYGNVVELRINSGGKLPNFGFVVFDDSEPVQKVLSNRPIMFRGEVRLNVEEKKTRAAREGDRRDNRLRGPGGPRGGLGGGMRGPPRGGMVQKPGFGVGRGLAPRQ
Technique: RNA Bind-n-Seq
Form: RNA
Sample: in vitro
Tested at: 1 µM
Setting: whole 134-nt RNA, ends assumed
With: 150 mM KCl
Reference: input library
Direction: higher = stronger binding
Quantity: log2 enrichment
All sequences stand within: GGGAGUUCUACAGUCCGACGAUC … UGGAAUUCUCGGGUGUCAAGG
CAAGUCCUGUGCUACACAUCGUAUGUACCGAAUCGGUUUGGAAAAAGGUUUUUGGAAAGUAUUAUGUUACGCCGUUCGGAUCUGCACUUC: -1.81
GUCCUGUGCUACACAUCGUAUGUACCGAAUCGGGGAAAGGGGAAAAAGGGGUUUGGGGAAAGUAUUAUGUUACGCCGUUCGGAUCUGCAC: 2.75
UGGGAGGUGGAUUUUGUUUAUUUUUUUAGCUCAUUUCCAGGGGUGGGAAUUUUUUUUUAAUAUGUGUCAUGAAUAAAGUUGUUUCUGAAA: 2.47
GUCCUGUGCUACACAUCGUAUGUACCGAAUCGGAAAAAAGGGGAAAAAAGGAAAAAAGGAAAGUAUUAUGUUACGCCGUUCGGAUCUGCA: -1.47
CAAGUCCUGUGCUACACAUCGUAUGUACCGAAUCGGUUUUUGGAGGAAAAAAAGGAAAGUAUUAUGUUACGCCGUUCGGAUCUGCACUUC: -1.53
UCCUCAAGUCCUGUGCUACACAUCGUAUGUACCGAAUCGGGCGGCGGCGGGGAAAGUAUUAUGUUACGCCGUUCGGAUCUGCACUUCCAG: -0.469
AAGUCCUGUGCUACACAUCGUAUGUACCGAAUCGGGUGGGAAAGGGAAAAAAAGGGAAAGUAUUAUGUUACGCCGUUCGGAUCUGCACUU: -0.251
CACAGACAACACGCACCCACACAGACACAGAGGGACGGGGUUGGGAUGGGGACAGGGUGCACAGCAGGGCGGGGUAGGACCCCAGCCCCU: 0.473
GCAGGAAGUAAAAACAAAUGGAAAUGCUUCGGAUAGUGGCAGGGGUGGGGGUUGCUAAGGAGAGGGUGGGAUGGGAGUGGGUAAAGAGUU: 1.5
AGUCCUGUGCUACACAUCGUAUGUACCGAAUCGGGGUUUUGGGUUUUGGGGUUUUGGGAAAGUAUUAUGUUACGCCGUUCGGAUCUGCAC: 0.335

Series 3
Target: RNA binding protein fox-1 homolog 2, RRM domain, GST-SBP tag (RBFOX2, Homo sapiens, UniProt O43251-10, residues 100-194)
Technique: RNA Bind-n-Seq
Form: RNA
Sample: in vitro
Tested at: 365 nM
Setting: natural RNA segment, single round, ends assumed
Reference: no-protein control
Direction: higher = stronger binding
Quantity: RBNS enrichment (R)
All sequences stand within: GGGAGUUCUACAGUCCGACGAUC … UGGAAUUCUCGGGUGCCAA
Target sequence (chain): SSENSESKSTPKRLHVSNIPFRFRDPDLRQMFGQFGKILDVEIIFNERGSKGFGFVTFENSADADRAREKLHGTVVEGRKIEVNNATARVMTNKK
CCUCCUGACUGAGCCUACCACCCGCAGGUCUCCAUGAAACUUUCCCUCAUGUCCUCAGUGGUCUGGCAAGCCGUUCACCCCUGCUGACAGGCUUCAAGCUGCUAAACACC: 0.396
CUGGAACAGUUUCCUUCUCUGCUUUUGACUUUAAAUCCCUGGGUGUCCCCCAGGAGUCAGUUUGCUAGUGGAUAAUGGAGGAGGUUCUACACUGACCCAGAGGCAUAGGA: 0.296
UAUAAAUGGUGACGAAAUGACAUCCUAAACAGAGUCUUUCUCCUGUAAUUUAGCUGAGAGAAUUCUUUUUCCCAACAGUGAAACAAGUGGGCCUCCUAGAAACUUUAUUG: 0.336
UACAAGUGACUAUAGAAGAAAGAGGCCUGGUCUUGAGCAGAGACUCUUGUUCGCAACUCAGAUCACACUCCAAUUGUGGUGACAGACUCUUCCAUAUCAGGCUGGUUUUG: 0.396
CUCGGUUCACUGUUUGUUUUCGAAUGCCUUGUUUUCAUAGAGCCCUAUUCUCUCAGACGGUGGAAUAUUUGGAAAAAUUUUAAAACAAUUAAAAUUUUAAAGCAAUCUUG: 0.529
CAACCCCCUCGCCCCAGCAGCAGCUCUGCCAGCCAGCUGAUCCCUGUGGGAUCAGGGGACUGGAGUCACUGUGUCUACACCACCAGCUUCUAGAGGAAUUUGGUCUAUGC: 0.244
GCGUCUGCCUGGCAGUGGGCCAUGAACUGAGGGGUCUCUGUGUAGAGUAGAAGCUUCCUGUGCCUCCGGUUGCCAGGAGACAGCCUGUGCAGUUAAAUGGACCUAGAUUU: 3.57
GAGAACAAUUGUUUAUUUUUUCUCUUUGGUUUUAGAUAUUAAUAAUAACAUUACUGGAAUUUUUUUCCAAAGAAACUAUUUUUAUAAUUCAAUAAUUUAACGUUUUCGUU: 0.855
CCAAACCUUGGCCUUUCUGCAAGGGCAGCAUAUGGAAACAUCAACUCUGAGAACAAAAUACUACCUCACUCUUUACGUACGUGGUGACUGUACGCACAGUCUGUGCUGCA: 1.57
GAUGAUGAUCCUAAUUACAUAAACACACACAUAUAUCUAGUGAUUUCUAAGGAUUUGUUUACUUUUUGUGUUCUGUUUUGCUGUAUUAAAAACUUGUCCUUUUCCUUAAA: 0.25
UCCUCUUUCCUCCAUUCAUCAUCAAGGUAGGCUGUGUUUGUCGGUGUGCCUCCCCUGCCCUCGGCCCCUAGCUGAUUUCUCCCCUAGAUAUGGUGCACUGUUUCCCUGGG: 0.747
GAGUGAGGCAAGCCCUUCCUAUGAAGAUGAGCAAAAAUAUUAUUCCACUUCACUCUGAGUGCUUUCAGGAUCUGGGGCUUCAAGACUCACUGCUUCAGUCAGCCUUCAUU: 0.38

Series 4
Target: Interferon regulatory factor 7, full length, phosphomimetic (IRF7, Homo sapiens, UniProt Q92985, residues 1-503, S101K/S471D/S472D/S475D/S476D/S477D/S483D/S484D/S487D)
Technique: protein-binding microarray
Form: double-stranded DNA, one strand shown
Sample: in vitro
Tested at: 250 nM
Setting: 60-bp whole probe
With: salmon DNA 0.4 mg/ml
Reference: random background probes
Direction: higher = stronger binding
Quantity: log fluorescence
All sequences stand within: GCCTAGCAC … GTCTTGATTCGCTTGACGCTGCTG
Construct (chain): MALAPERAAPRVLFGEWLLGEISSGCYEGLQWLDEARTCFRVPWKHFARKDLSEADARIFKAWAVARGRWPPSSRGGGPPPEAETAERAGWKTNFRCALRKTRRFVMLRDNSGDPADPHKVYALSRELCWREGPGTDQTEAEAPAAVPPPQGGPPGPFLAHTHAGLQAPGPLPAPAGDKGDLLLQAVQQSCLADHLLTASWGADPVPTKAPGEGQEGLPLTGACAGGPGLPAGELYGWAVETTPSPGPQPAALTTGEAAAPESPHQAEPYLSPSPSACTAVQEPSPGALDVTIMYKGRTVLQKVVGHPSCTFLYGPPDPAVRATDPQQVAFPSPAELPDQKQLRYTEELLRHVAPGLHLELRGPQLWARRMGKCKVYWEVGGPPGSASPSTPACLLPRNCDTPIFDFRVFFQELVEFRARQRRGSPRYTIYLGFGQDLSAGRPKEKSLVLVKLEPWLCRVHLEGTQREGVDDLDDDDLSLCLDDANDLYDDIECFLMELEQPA
GACGGTATCCGACTGGGGACGTGCTAG: -0.166 z-score
GACGATATAGGGTTTCGAGACGTGCTA: 1.99 z-score
GACGGTTGCGGTCTCGGGACGTGCTAG: -0.149 z-score
TTAGATTTCCGTATCGATTAGTGCTAG: 1.36 z-score
GATGGGCTACCTCTCTTAGAGTGCTAG: -0.955 z-score
CTCTCATTCCAATTCTTTTTGTGCTAG: 0.968 z-score
TTGCTGAAATAATACTGTTAGTGCTAG: -0.476 z-score
TTAGATTTCTGTTTCGATTAGTGCTAG: 5.54 z-score
TTAGATTTTTTTTCCTAATTGTGCTAG: 0.918 z-score
ATAACTTTTTTTTTTCCCTGGTGCTAG: 0.536 z-score
TTAGGACCGCTTATCCTTTAGTGCTAG: 0.93 z-score
TTTCCTTTATGTCCTGTCTAGTGCTAG: 2.22 z-score
TTAGATTTCAGTCTCGATAAGTGCTAG: 0.981 z-score
GACGATTTCAGTATCCAGACGTGCTAG: 0.135 z-score
TTAGGTTTCGAGTTTCGGTTAGTGCTA: 12.6 z-score
TTAGGTCTCCTACTGCTTCAGTGCTAG: -0.338 z-score
TCACTTTTTAAGATCTGACTGTGCTAG: 0.87 z-score
GACGTTATCGGGTTTCGAGACGTGCTA: 2.72 z-score

Repeated from above (series 2):
CAAGUCCUGUGCUACACAUCGUAUGUACCGAAUCGGUUUGGAAAAAGGUUUUUGGAAAGUAUUAUGUUACGCCGUUCGGAUCUGCACUUC: -1.81
GUCCUGUGCUACACAUCGUAUGUACCGAAUCGGGGAAAGGGGAAAAAGGGGUUUGGGGAAAGUAUUAUGUUACGCCGUUCGGAUCUGCAC: 2.75
UGGGAGGUGGAUUUUGUUUAUUUUUUUAGCUCAUUUCCAGGGGUGGGAAUUUUUUUUUAAUAUGUGUCAUGAAUAAAGUUGUUUCUGAAA: 2.47
GUCCUGUGCUACACAUCGUAUGUACCGAAUCGGAAAAAAGGGGAAAAAAGGAAAAAAGGAAAGUAUUAUGUUACGCCGUUCGGAUCUGCA: -1.47
CAAGUCCUGUGCUACACAUCGUAUGUACCGAAUCGGUUUUUGGAGGAAAAAAAGGAAAGUAUUAUGUUACGCCGUUCGGAUCUGCACUUC: -1.53
UCCUCAAGUCCUGUGCUACACAUCGUAUGUACCGAAUCGGGCGGCGGCGGGGAAAGUAUUAUGUUACGCCGUUCGGAUCUGCACUUCCAG: -0.469
AAGUCCUGUGCUACACAUCGUAUGUACCGAAUCGGGUGGGAAAGGGAAAAAAAGGGAAAGUAUUAUGUUACGCCGUUCGGAUCUGCACUU: -0.251
CACAGACAACACGCACCCACACAGACACAGAGGGACGGGGUUGGGAUGGGGACAGGGUGCACAGCAGGGCGGGGUAGGACCCCAGCCCCU: 0.473
GCAGGAAGUAAAAACAAAUGGAAAUGCUUCGGAUAGUGGCAGGGGUGGGGGUUGCUAAGGAGAGGGUGGGAUGGGAGUGGGUAAAGAGUU: 1.5
